Experimental data from different studies.
“And” joins repeats or separate records; there may be more than shown.
Target: Receptor tyrosine-protein kinase erbB-4 (ERBB4, Homo sapiens, UniProt Q15303)

With `COc1cc(Nc2nc(C)cc(-c3cnn4nc(OC)ccc34)n2)cc(C(F)(F)F)c1` the remaining activity was 90% (inhibitor; 1 µM; reference: control).
The inhibition of `COc1cc(OC)c(F)c(/C=C/c2cnc3ccn(S(=O)(=O)c4cn(CCF)cn4)c3n2)c1F` is reported as 6.1% (100 nM).
The remaining activity of `c1ccc2c(Nc3cc(C4CCC4)[nH]n3)nc(Nc3ccc4nc[nH]c4c3)nc2c1` is reported as 32% (enzyme activity, inhibitor; 0.25 µM).
`COc1c(Cl)cccc1Nc1c(-c2ccncc2C#C[C@@]2(C)CCCN2C(=O)/C=C/CN(C)C)[nH]c2c1C(=O)NCC2` has a remaining binding of 0% (binding, competition with immobilised ligand; 3 µM).
For `CN1CCN(Cc2ccc(-c3ccc(CO[C@H]4CCC[C@@H]4NC(=O)c4cc(-c5cnn(C)c5)cnc4N)cc3)cc2)CC1`, the inhibition was 2% (enzyme activity, inhibitor; 0.1 µM).
`O=C(Cc1ccc(OCc2ccccc2)cc1)NC1(C(=O)O)CCN(C(=O)c2ccc(-c3cccc(Cl)c3)cc2)CC1`: “activity vs control” 108% (enzyme activity, inhibitor; 10 µM).
With `COc1c(OCCCN2CCOCC2)ccc2c1N=C(NC(=O)c1cnc(N)nc1)N1CCN=C21` the remaining activity was 119% (kinase activity, inhibitor; 1 µM; reference: untreated control).
The inhibition of `CN1CC[C@@H](COc2cnc(C#N)cc2-c2ccn3nc(NC(=O)C4CC4)cc3c2)C1` is reported as -11% (enzyme activity, inhibitor; 1 µM).
The inhibition of `CCn1cc(C(=O)O)c(=O)c2c(N)c(F)c(NC3CCCCC3)cc21` is reported as 9.5% (kinase activity; 0.1 µM, together with: ATP at Km).
`CNC(=O)C1CCN(c2cc(C)c(F)cc2NC(=O)c2ccc(-c3cc(O)ccc3C)c(C)c2)CC1` gave a remaining binding of 51% (binding, competition with immobilised ligand; 1 µM).
For `CNC1C[S+]2CC[S+]3CC[S+](C1)[Ru-4]321([N]=C=S)[n]2c3ccc(OC)cc3c3c4c(c5cc(F)c[n+]1c5c32)C(=O)NC4=O` (stereo not drawn), the remaining binding was 100% (KinomeScan; 0.1 µM; reference: untreated).
`NC(=O)C[C@H]1CCc2sc3ncnc(O[C@H]4CC[C@H](N5CCOCC5)CC4)c3c21` has an inhibition of 8% (enzyme activity, inhibitor; 10 µM).
`Cc1cccc(O[C@H]2CCC[C@@H](C(C)CNCc3ccncc3)C2)c1` (relative stereo) gave an inhibition of 14% (enzyme activity, inhibitor; 1 µM).
`Cc1ccc(-c2c(/C=C(\C#N)C(=O)NC(C)C)n(CCCO)c3ncnc(N)c23)cc1` has a remaining binding of 99% (cell-free assay, competition with immobilised ligand; 1 µM).
`Nc1ncc2c(n1)-c1c([nH]c3ccc(C4=CCOCC4)cc13)CCC2` gave a remaining binding of 97% (binding, competition with immobilised ligand; 1 µM).
`CN1CCN(c2ccc(Nc3ncc(Cl)c(Nc4ccccc4P(C)(C)=O)n3)cc2Br)CC1` gave an inhibition of 4.4% (enzyme activity, inhibitor; 0.1 µM).
The remaining activity of `COc1ccc(NC(=O)Nc2ccc3c(c2)C(=O)N(C(C)CO)CC(C)C(CN(C)Cc2ccc4c(c2)OCO4)O3)cc1` (stereo not drawn) is reported as 97% (kinase activity, KinaseProfiler; 0.03 µM, species human; reference: control).
For `COc1ccc(C(=O)/C=C/c2ccccc2-c2c[nH]c3ccc(C#N)cc23)c(O)c1`, the inhibition was 1% (enzyme activity, inhibitor; 20 µM).
For `CN1CCN(Cc2ccc(NC(=O)c3cccc(C#Cc4cnc(N)c5ncccc45)c3)cc2C(F)(F)F)CC1`, the remaining binding was 15% (cell-free assay, competition with immobilised ligand; 0.5 µM).
`C=CC(=O)Nc1cccc(-c2cnc3[nH]cc(C(=O)NC(C)(C)C)c3n2)c1` gave an inhibition of 6% and 3% (kinase activity; 0.1 µM).
For `CC(=O)N1c2ccc(-c3ccc(CNC(=O)c4cn5cc(-c6cnc(N)nc6)nc(N6CCOCC6)c5n4)cc3)cc2CC[C@@H]1C`, the remaining binding was 77% (KINOMEscan; 10 µM).

For quick reference, copied from above:
For `CN1CCN(Cc2ccc(NC(=O)c3cccc(C#Cc4cnc(N)c5ncccc45)c3)cc2C(F)(F)F)CC1`, the remaining binding was 15% (cell-free assay, competition with immobilised ligand; 0.5 µM).
`C=CC(=O)Nc1cccc(-c2cnc3[nH]cc(C(=O)NC(C)(C)C)c3n2)c1` gave an inhibition of 6% and 3% (kinase activity; 0.1 µM).
For `CC(=O)N1c2ccc(-c3ccc(CNC(=O)c4cn5cc(-c6cnc(N)nc6)nc(N6CCOCC6)c5n4)cc3)cc2CC[C@@H]1C`, the remaining binding was 77% (KINOMEscan; 10 µM).
